# Experimental data from different studies.
# Parts stem from different laboratories: compare values within a part only.

# Study 1 — technique: universal PBM; form: double-stranded DNA, one strand shown; matrix: in vitro; concentration: not given; direction: higher = stronger binding
# Target: Sal-like protein 4, full length isoform B (SALL4, Homo sapiens, UniProt Q9UJQ4-2, residues 1-616)
# Notes: 8-mer, flanks averaged, mean of replicates
# Target sequence (chain): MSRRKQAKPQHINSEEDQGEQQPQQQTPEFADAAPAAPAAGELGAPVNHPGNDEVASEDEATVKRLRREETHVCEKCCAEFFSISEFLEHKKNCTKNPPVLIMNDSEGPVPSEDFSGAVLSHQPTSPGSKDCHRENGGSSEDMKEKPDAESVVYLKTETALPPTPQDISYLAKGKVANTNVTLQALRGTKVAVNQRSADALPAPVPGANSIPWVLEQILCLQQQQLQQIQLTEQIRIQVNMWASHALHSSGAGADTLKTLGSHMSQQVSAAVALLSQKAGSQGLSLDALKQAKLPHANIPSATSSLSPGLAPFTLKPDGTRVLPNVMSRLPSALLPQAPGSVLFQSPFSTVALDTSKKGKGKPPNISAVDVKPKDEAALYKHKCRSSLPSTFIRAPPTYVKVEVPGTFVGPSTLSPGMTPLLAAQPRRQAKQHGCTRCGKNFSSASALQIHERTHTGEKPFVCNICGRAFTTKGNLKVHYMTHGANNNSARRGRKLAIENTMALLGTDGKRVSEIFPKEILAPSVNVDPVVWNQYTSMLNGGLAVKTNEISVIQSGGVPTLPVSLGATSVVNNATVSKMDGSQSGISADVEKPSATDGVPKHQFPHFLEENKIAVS
Sequence,E-score
CGTTGTTA,0.164
AACGACCC,-0.216
GGACCACC,-0.247
ACCGAAGT,-0.142
GCCGTGAA,-0.036
TAGGCGAA,0.162
CCAAATCG,0.0594
CTACCGCA,-0.0138
AAAAACTC,0.14
ACACAAAC,0.116
CTATCGAG,-0.0588
AAGGGCGG,-0.25
AAACGGCT,-0.114
CCACCTAA,-0.00301
CAGTGAAC,-0.0165
GCTGGCAC,-0.236
CCGCGTTC,-0.214
CTCCACGA,-0.148
GGCTGAAC,-0.235
AGTTGCGC,-0.156
CCACTGTC,-0.243
GAGGTTGA,0.0641
CGGTTGGC,-0.246
GTTACCCA,-0.173
CCCTTTTA,0.0911

# Study 2 — technique: protein-binding microarray; form: double-stranded DNA, one strand shown; matrix: in vitro; concentration: 2540 nM top; notes: 60-bp whole probe; together with: salmon DNA 0.4 mg/ml; reference: random background probes; direction: higher = stronger binding; constant ends, left off below: GCCTAGCAC … GTCTTGATTCGCTTGACGCTGCTG
# Target: Interferon regulatory factor 3, full length, phosphomimetic (IRF3, Homo sapiens, UniProt Q14653, residues 1-427, S386D/S396D/S398D/S402D/T404D/S405D)
# Residues (chain): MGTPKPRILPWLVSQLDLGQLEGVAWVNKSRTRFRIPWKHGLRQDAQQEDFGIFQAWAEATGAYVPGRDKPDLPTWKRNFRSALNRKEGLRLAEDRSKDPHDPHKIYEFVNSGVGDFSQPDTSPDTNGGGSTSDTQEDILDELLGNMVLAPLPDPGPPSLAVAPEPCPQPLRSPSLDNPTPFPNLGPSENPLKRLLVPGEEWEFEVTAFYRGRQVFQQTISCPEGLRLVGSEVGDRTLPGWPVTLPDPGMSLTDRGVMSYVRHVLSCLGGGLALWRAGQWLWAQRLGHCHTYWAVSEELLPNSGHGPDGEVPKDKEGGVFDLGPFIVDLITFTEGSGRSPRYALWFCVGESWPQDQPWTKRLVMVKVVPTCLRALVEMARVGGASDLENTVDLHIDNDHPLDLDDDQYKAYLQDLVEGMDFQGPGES
Sequence,fitted relative affinity
GGCTGTTTGGTTCTGATCCTGTGCTAG,0.38 z-score
TTAGTTTTCGGTTTCGGTTAGTGCTAG,9.44 z-score
GCAGGGCAGGCAGGCTGAGGGTGCTAG,-1.62 z-score
TTAGGTTCCGGTTTCGGATAGTGCTAG,7.5 z-score
TTAGGGATCGGGACTGGGTTAGTGCTA,-0.319 z-score
TTAGAGTTCAGTCTCGATTAGTGCTAG,0.417 z-score
TTAGGTCTCGGACTGGGTTAGTGCTAG,-0.245 z-score
TGAAATTTTAATAACACAGAGTGCTAG,-0.0662 z-score
GGGGTTTCGGATGGGATGTCGTGCTAG,2.13 z-score
TCATTTTTGGAATGTCTTACTGTGCTA,1.53 z-score
CAAACACTGGTTTTTACTTTGTGCTAG,1.47 z-score
GACGGTCACCTACTGCTGACGTGCTAG,0.132 z-score
GACGACCTCAGTTTCGAGACGTGCTAG,1.6 z-score
AGATGCCAAGAGGCATGATGGTGCTAG,-0.535 z-score
GACGAATTGGGGTATCGAGACGTGCTA,-0.142 z-score
TTAGGTATCCTTTTCGTTTAGTGCTAG,8.4 z-score
GACGGAATCCTTATCCTGACGTGCTAG,2.24 z-score

# Study 3 — technique: RNA Bind-n-Seq; form: RNA; matrix: in vitro; concentration: 365 nM; reference: no-protein control; direction: higher = stronger binding
# Target: RNA binding protein fox-1 homolog 2, RRM domain, GST-SBP tag (RBFOX2, Homo sapiens, UniProt O43251-10, residues 100-194)
# Notes: natural RNA segment, single round, ends assumed
# Constant ends, left off below: GGGAGUUCUACAGUCCGACGAUC … UGGAAUUCUCGGGUGCCAA
# Target sequence (chain): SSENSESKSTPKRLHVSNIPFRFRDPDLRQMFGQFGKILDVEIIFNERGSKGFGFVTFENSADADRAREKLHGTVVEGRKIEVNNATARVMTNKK
Sequence,RBNS enrichment (R)
CUCAAACCCGGGGCGGAGGAUUCCAGGCAGGCUCUAGGAGUCAGGUGUCCGUUUGCUGCUAUCAGUGAGUGGGGGCCAUUGUUUUUUGUUUGUUUGUUUGUUUGUUUGUU,24.7
UCCAGGUGCACAGAGAGCCCUGCCACCGUCUUACCUCUGGGCUUUGGUGCUUAACACACAACACAGCUGCAGACCCUGCUGGAGGCCGAGGGCUCCAGGUGCUAUCUUAG,0.342
GAUCUCAUUUUUUAACCCCUUCCUGUCUUGCCUGUCCCAUAGAUAAGGCCUGUGUGCUGCUCUCAUGGCCCUGGUGCACCACCUUUCUGUGAAUCUCUCCCACUGGAUCC,0.829
CUAGGGUGUUGCGUGCUGUGCUAAGUAAAUUUUAAGUCUUUCAGUUUUAUAGAUACGGAAAACAAGGGUGACUCUUUACCACAGGAUGAAUAAAGAACUAAGUAAUAUGG,0.895
GCUCUAGAAGAGUUGAAACAUAGAUCAUUGAAGGUUAAAAAUCCUCUUCCAAAGCAGCAAGUCAAUCAAUACAAUAAUGAUAUUUGGGGAGGGGUGGGAGCCCUUAAGAA,0.754
GAAGCCCAAGGAACUGUGAGCAAUUAAAAGCAAACCGCGACACCCUUUGUCUCCACCACACAUAGUGUACUUUGGAAGCACAACGUCCAGGCUGGUACCGCAGCGCCAUG,0.262
AUGAUUGAGUUAUUUAGUGAAAAUGUGGAACUAGCUGCCAGUGCCUCAGUCUUCUUGUAUAAUGCCUUUCCAUGGAUUGGCAUCCUGCCUUUUGGAAAACAUCAACAGCU,0.57
UAUGUGCUAGCUUGUAUAUAUAUAUAUAUAUUUAAAAAAAAUCUACCUGCUUCUGACUUUAAGCAAAAGGAAAGAAAACUACCUUUUUAUAUAAUGCACAACUGUUGAUG,1.97
UUCUGAUGAAGUGAUUGUAGUAGGUGUCUGUAGCUAGUCUUCAAGACCACACCUGGAAGAGUUUCUGGGCUGGCUUUAAGUCCUGUUUGAAAAAGCAACCCAGUCAGCUG,0.345

# Study 4 — technique: RNA Bind-n-Seq; form: RNA; matrix: in vitro; concentration: not given; reference: input RNA pool; direction: higher = stronger binding
# Target: RING finger protein unkempt homolog, zinc fingers 1-6, GST-SBP tag (UNK, Homo sapiens, UniProt Q9C0B0, residues 30-357)
# Notes: RNA with constant flanks, human and mouse sites, ends assumed
# Constant ends, left off below: GGGAGUUCUACAGUCCGACGAUC … CAACAGAGGAUUGAGCAUCA
# Target sequence (chain): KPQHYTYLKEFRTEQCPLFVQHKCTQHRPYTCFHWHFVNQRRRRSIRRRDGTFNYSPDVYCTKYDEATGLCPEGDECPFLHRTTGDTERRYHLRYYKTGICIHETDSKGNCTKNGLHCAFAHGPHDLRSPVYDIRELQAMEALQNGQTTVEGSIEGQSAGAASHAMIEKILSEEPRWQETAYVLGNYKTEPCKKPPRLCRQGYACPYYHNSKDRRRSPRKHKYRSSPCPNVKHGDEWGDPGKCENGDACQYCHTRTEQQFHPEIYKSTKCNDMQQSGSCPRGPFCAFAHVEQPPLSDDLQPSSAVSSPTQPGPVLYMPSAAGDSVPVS
Sequence,bound/input enrichment
AUGGGGUGGGAGGGGGAAAAAGGCCGACAACACUCGACCGCUUGUUUUGUGCCAAAUGCUUUUAGAUAAGGACAUAAUGUUUUUGACUGAUGUAAAUACUAACUCUAGAAUAGGCAGGAU,1.06 ratio
CUGAUUGUGGACAACAGCAUGGCUCCAGCCUCCGAUCUUGCACUGCCCUUGGAAACAAAAGUAGCAACAGUUCCAAUUAAAGACAAAGGAACUGUACAGACUGAAGAAAAACCACGUGAA,0.126 ratio
GCAGAUGCAGUAGGCGUAACUGUUGUGCUAAUUACUUGUACCUAUCGAGGACAAGAAUUUAUUAGAGUUGGCUAUUAUGUAAAUAAUGAAUAUACUGAGACAGAAUUAAGGGAAAAUCCA,1.82 ratio
AAGAUUAAAUUGCUUACUGGUAAACGCGUUCAACUGGCGGAAGACCUCAAGAAAGUUAGAGAAAUUCAAGAAAAACUUGAUGCUUUCAUUGAAGCUCUUCAUCAGGAGAAAUAAAUUAAA,0.314 ratio
AUGAUCGACGUGCAGAACAGGGCCUACUUCCAGCAGUACGGCUGCACCUUCACCGCUGUCAUCCCCACCAACGUCUUCGGGCCCCACGACAACUUCAACAUCGAGGAUGGCCACGUGCUG,0.0862 ratio
UUCUUCUUCUUUGAUUCAGUUCAAGUCGUUUUCACAAUAUGUACAGCAGUUCUUGCAACAAUAGCUUUUGCUUUUCUUCUUCUCCCGAUGUGCCAGUAUUUAACAAGGCCCUGCUCACCU,2.09 ratio
AAAGAGUGGAUAGAGUGUGCACACGGGAUCGGUGGGACCCGGGCGAAAAAGGAGUGCAAGAUAGAGUUCGAUGACUUCGAAGAGUGCUUGCUUCGGUACAAAACGAUGAGGCGAAUGCAU,0.345 ratio
AGCCAUUGGGGAGGCAGAUGCGGGUGUGGAGGUGUGGGCUGAAGGUAGUGACUGUUUGAUUUUAAAAAGUGUGACUGUCAGUUGUAUCUGUUGCUUUUCUCAAUGAUUCAGGGAUACAAA,1.53 ratio
GGGAUCGCUCCGUCGCACCCACCAUGAUGGAAGACGACGGGCAGCCCCGGACUCUAUACGUAGGUAACCUUUCCAGAGAUGUGACAGAAGUCCUUAUACUUCAGUUGUUCAGUCAGAUUG,0.102 ratio
CUAACCCUUCAACCCCCUCGCCUCCUACUCUGAGACAAAAGAAAAAAUAUUAAAAAAAUGCAUAGGCUUAACUCGCUGAUGAGUUAAUUGUUUUAUUUUUAAACUCUUUUUGGGUCCAGU,0.503 ratio
UGCAUGCUGCUGUUUGUGUUUGGCUUUGUUGGCGGGGCGGUGGUCAUUAAUUCUGCGAUCUUAGUAUCUCUCUCUGUUUUGCUGCUUGUGCACUUUUCUAUUUCUACCGGGGUGCCAGCG,0.738 ratio

# Repeated from above (study 2):
Sequence,fitted relative affinity
GACGGAATCCTTATCCTGACGTGCTAG,2.24 z-score
AGATGCCAAGAGGCATGATGGTGCTAG,-0.535 z-score
CAAACACTGGTTTTTACTTTGTGCTAG,1.47 z-score
TTAGGTTCCGGTTTCGGATAGTGCTAG,7.5 z-score
TTAGGTCTCGGACTGGGTTAGTGCTAG,-0.245 z-score
TGAAATTTTAATAACACAGAGTGCTAG,-0.0662 z-score
TTAGGGATCGGGACTGGGTTAGTGCTA,-0.319 z-score
TCATTTTTGGAATGTCTTACTGTGCTA,1.53 z-score
